Results from different studies.
Lines come from different studies, so protocols differ.
CDK4 with cyclin D3: Cyclin-dependent kinase 4, with cyclin D3 (CDK4, Homo sapiens, UniProt P11802)
CDK4: Cyclin-dependent kinase 4 (CDK4, Homo sapiens, UniProt P11802)

Cc1cnc2nc1Nc1cccc(c1)COC/C=C/COCc1cc(ccc1OCCN1CCOCC1)N2 gave a remaining binding of 89% (CDK4 with cyclin D3; binding; 0.1 µM).
CNC(=O)C1CCN(c2cc(C)c(F)cc2NC(=O)c2ccc(-c3cc(O)ccc3C)c(C)c2)CC1 has a remaining binding of 100% (CDK4; binding, competition with immobilised ligand; 1 µM).
For Nc1ncc2c(n1)-c1c([nH]c3ccc(C4=CCOCC4)cc13)CCC2, the remaining binding was 76% (CDK4 with cyclin D3; binding, competition with immobilised ligand; 1 µM).
C[C@]1(O)CCCN(c2nc(Nc3ccc(S(=O)(=O)N[C@H]4CC[C@H](CN5CCN(c6ccc(C7CCC(=O)NC7=O)cc6F)CC5)CC4)cc3)ncc2C(F)(F)F)C1 (some centres unmarked) gave a remaining binding of 63% (Cyclin-dependent kinase 4, with cyclin D1 (CDK4, Homo sapiens, UniProt P11802); binding, competition with immobilised ligand; 1 µM).
C=CC(=O)N1CCCC(n2c(=O)c3ncccc3n(Cc3ccc(Oc4ccccc4)cc3)c2=O)C1 (centres unmarked) gave a remaining binding of 89% (CDK4 with cyclin D3; cell-free assay, competition with immobilised ligand; 1 µM).
The remaining binding of CC(C)=CC1OC(C)(C)C2C=C3C(=O)C(Cl)=CC(O)C3C3C(O)C4OC4C(=O)C132 (centres unmarked) is reported as 100% (CDK4; cell-free assay, competition with immobilised ligand; 10 µM).
The remaining binding of COc1c(Cl)cccc1Nc1c(-c2ccncc2C#C[C@@]2(C)CCCN2C(=O)/C=C/CN(C)C)[nH]c2c1C(=O)NCC2 is reported as 100% (CDK4; binding, competition with immobilised ligand; 3 µM).
With COc1cc(Nc2nccc(-c3cnn4nc(OC)ccc34)n2)cc(C(F)(F)F)c1 the remaining binding was 92% (CDK4 with cyclin D3; binding, competition with immobilised ligand; 1 µM).

For quick reference, copied from above:
C[C@]1(O)CCCN(c2nc(Nc3ccc(S(=O)(=O)N[C@H]4CC[C@H](CN5CCN(c6ccc(C7CCC(=O)NC7=O)cc6F)CC5)CC4)cc3)ncc2C(F)(F)F)C1 (some centres unmarked) gave a remaining binding of 63% (Cyclin-dependent kinase 4, with cyclin D1 (CDK4, Homo sapiens, UniProt P11802); binding, competition with immobilised ligand; 1 µM).
